Published values collected from several papers.
Compare with care: the assays were run in different laboratories. Numbers after ± are the reported error.

Structure (SMILES)	tested on	test	setting	IC50
O=C(Cc1ccc2ccccc2c1)N[C@H](Cc1ccc(O)cc1)C(=O)N[C@H](Cc1ccccc1)C(=O)N[C@H](Cc1ccccc1)C(=O)N[C@H](Cc1ccc(OP(=O)(O)O)cc1)C(=O)O	A2780cis	cell growth or viability, MTT	–	283 µg/mL
Cc1cc(Nc2nc(C[C@@]3(C(=O)O)CCN(Cc4cccc(Cl)c4F)[C@H](C)C3)cc(C)c2F)[nH]n1	neuroblastoma cell lines	cell proliferation	mean of four lines	0.0173 µM
CC[C@@]1(O)C(=O)OCc2c1cc1n(c2=O)Cc2c-1nc1cc(F)c(C)c3c1c2[C@@H](NC(=O)CCCN)CC3	KPL4	cell growth or viability, ATP luminescence	5 days	0.0335 µM
C[C@H]1C(OCCCCCCC[P+](c2ccccc2)(c2ccccc2)c2ccccc2)O[C@@H]2O[C@@]3(C)CCC4[C@H](C)CCC1[C@]42OO3 (some centres unmarked)	SK-OV-3	cell growth or viability, MTT	72 h	0.098 µM
C[C@H](NC(=O)[C@H](CCCNC(=N)N)NC(=O)[C@H](CCCNC(=N)N)NC(=O)[C@@H]1CCCN1C(=O)CNC(=O)[C@H](CCCNC(=N)N)NC(=O)[C@H](CCCNC(=N)N)NC(=O)CN)C(=O)N[C@@H](CC(N)=O)C(=O)N[C@@H](CCC(N)=O)C(=O)N[C@@H](CC(N)=O)C(=O)NCC(=O)N[C@H](C(=O)N[C@@H](CCCNC(=N)N)C(=O)N[C@@H](CCCNC(=N)N)C(=O)N[C@@H](CCCNC(=N)N)C(=O)N[C@@H](CCCNC(=N)N)C(=O)N[C@@H](CCCNC(=N)N)C(=O)N[C@@H](CCCNC(=N)N)C(=O)N[C@H](C(N)=O)[C@@H](C)O)[C@@H](C)O	BT-20	cell viability, CellTiter-Blue	24 h, serum-free medium	> 100 µM
CC(C)C[C@H](NC(=O)[C@H](CCCCN)NC(=O)[C@H](CC(C)C)NC(=O)[C@H](CC(C)C)NC(=O)[C@H](CCCCN)NC(=O)[C@H](CCCCN)NC(=O)[C@H](CC(C)C)NC(=O)[C@H](CC(C)C)NC(=O)[C@H](CCCCN)NC(=O)[C@H](CC(C)C)NC(=O)[C@H](CC(C)C)NC(=O)[C@H](CCCCN)NC(=O)[C@H](CCCCN)NC(=O)[C@H](CC(C)C)NC(=O)[C@@H](N)CSSC[C@H](N)C(=O)N[C@@H](CC(C)C)C(=O)N[C@@H](CCC(=O)O)C(=O)N[C@@H](Cc1c[nH]cn1)C(=O)N[C@@H](CC(C)C)C(=O)N[C@@H](CC(C)C)C(=O)N[C@@H](CCC(=O)O)C(=O)N[C@@H](Cc1c[nH]cn1)C(=O)N[C@@H](CC(C)C)C(=O)N[C@@H](CCC(=O)O)C(=O)N[C@@H](Cc1c[nH]cn1)C(=O)N[C@@H](CC(C)C)C(=O)N[C@@H](CC(C)C)C(=O)N[C@@H](CCC(=O)O)C(=O)N[C@@H](Cc1c[nH]cn1)C(N)=O)C(N)=O	RG	cell viability, MTT	0.5 h, pH 6.0	13.4 µM
C=C(C)CC(OC)C(O)C(=O)NC(OC)C1CC(OC(=O)c2ccccc2)C(C)(C)C(CC(O)C(C)C2Cc3c(C)c(O)cc(O)c3C(=O)O2)O1 (single isomer, unassigned; (-))	H522-T1	cell growth or viability	–	0.0054 µM
CC(C)C[C@H](NC(=O)[C@H](CC(C)C)NC(=O)[C@H](CCC(=O)O)NC(=O)[C@H](Cc1c[nH]cn1)NC(=O)[C@H](CC(C)C)NC(=O)[C@H](Cc1c[nH]cn1)NC(=O)[C@H](CCC(=O)O)NC(=O)[C@H](CC(C)C)NC(=O)[C@H](CC(C)C)NC(=O)[C@H](CCC(=O)O)NC(=O)[C@H](Cc1c[nH]cn1)NC(=O)[C@@H](N)CC(C)C)C(=O)N[C@@H](CCC(=O)O)C(=O)N[C@@H](Cc1c[nH]cn1)C(N)=O	HK-2	cell growth or viability, MTT	pH 7.4	> 100 µM
NC1CC1c1ccc(NC(=O)C(Cc2ccccc2)NC(=O)OCc2ccc(Br)cc2)cc1 (centres unmarked)	MV4-11 (AML)	–	–	5.3 ± 0.4 µM
O=C(Cc1ccc2ccccc2c1)N[C@H](Cc1ccc(O)cc1)C(=O)N[C@H](Cc1ccccc1)C(=O)N[C@H](Cc1ccccc1)C(=O)N[C@H](Cc1ccc(O)cc1)C(=O)O	A2780cis	cell growth or viability, MTT	–	> 500 µg/mL
C=C(C)C[C@H](OC)[C@H](O)C(=O)N[C@@H](OC)[C@@H]1C[C@H](O)C(C)(C)[C@@H](C[C@H](O)[C@@H](C)[C@H]2Cc3c(C)c(O)cc(O)c3C(=O)O2)O1	A2058	cell growth or viability	–	0.0004 µM
Cc1cc(C)c(N2CCN(c3c(C)cc(C)cc3C)C2=[Se])c(C)c1.[Cl][Au]	LoVo MDR	MTT	72 h	3 ± 0.4 µM
O=C(N=P12CN3CN(CN(C3)C1)C2)c1cccc[c]1[Pd]([Br])([PH]12CN3CN(CN(C3)C1)C2)[PH]12CN3CN(CN(C3)C1)C2	Jurkat	cytotoxicity, MTT	24 h, 1% DMSO	374 ± 40 µM
CC1COC2(OC3CC4C5CC(OC6OC(C)C(O)C(OC7OC(C)C(O)C(O)C7O)C6O)C6CC(O)CCC6(C)C5CCC4(C)C3C2C)C(O)C1 (centres unmarked)	HEK293T	cell viability, MTT	48 h	> 100 µM
O=C1C=CC(=O)c2ccccc21	MOLT-3	cell growth or viability, XTT	48 h	5.12 µM
CCCCCCCCC(=O)NCc1ccc(O)c(OC)c1	mAb 4-AT4	antibody binding, indirect competitive ELISA	together with: coating antigen hapten 4-OVA	0.00437 µg/mL
O=C(Cc1ccc2ccccc2c1)N[C@H](Cc1ccccc1)C(=O)N[C@H](Cc1ccccc1)C(=O)N[C@H](Cc1ccc(O)cc1)C(=O)N[C@H](Cc1ccc(O)cc1)C(=O)O	A2780cis	cell growth or viability, MTT	–	> 500 µg/mL
C=C(C)CC(OC)C(O)C(=O)NC(OC)C1CC(=C)C(C)(C)C(CC(O)C(C)C2Cc3c(C)c(O)cc(O)c3C(=O)O2)O1 (single isomer, unassigned; (+))	H522-T1	cell growth or viability	–	0.0016 µM
C[C@H]1[C@H](OC(=O)CCC(=O)OCCc2ccc(O)cc2)O[C@@H]2O[C@@]3(C)CC[C@H]4[C@H](C)CC[C@@H]1[C@@]24OO3	RPMI-7951	cell viability, MTT	24 h, together with: deferoxamine 20 µM, 1 h before	24.5 ± 2.1 µM
[Cl][Au].[Se]=c1n(C2CCCCC2)ccn1C1CCCCC1	LoVo MDR	MTT	72 h	3.7 ± 0.3 µM
CC(C)C[C@H](NC(=O)[C@H](CC(C)C)NC(=O)[C@H](Cc1c[nH]cn1)NC(=O)[C@H](CCC(=O)O)NC(=O)[C@H](CC(C)C)NC(=O)[C@H](Cc1c[nH]cn1)NC(=O)[C@H](CCC(=O)O)NC(=O)[C@H](CC(C)C)NC(=O)[C@H](CC(C)C)NC(=O)[C@H](Cc1c[nH]cn1)NC(=O)[C@H](CCC(=O)O)NC(=O)[C@@H](N)CC(C)C)C(=O)N[C@@H](CCC(=O)O)C(=O)N[C@@H](Cc1c[nH]cn1)C(N)=O	HK-2	cell growth or viability, MTT	pH 6	> 100 µM
Cc1cc(Oc2nc(N3CC[C@@H](c4ccncc4)C3)ncc2F)[nH]n1	cancer cell lines	cell growth	72 h, mean over lines	> 100 µM
CC(C)C[C@H](NC(=O)[C@H](CCCCN)NC(=O)[C@H](CC(C)C)NC(=O)[C@H](CC(C)C)NC(=O)[C@H](CCCCN)NC(=O)[C@H](CCCCN)NC(=O)[C@H](CC(C)C)NC(=O)[C@H](CC(C)C)NC(=O)[C@H](CCCCN)NC(=O)[C@H](CC(C)C)NC(=O)[C@H](CC(C)C)NC(=O)[C@H](CCCCN)NC(=O)[C@H](CCCCN)NC(=O)[C@H](CC(C)C)NC(=O)[C@@H](N)CSSC[C@H](N)C(=O)N[C@@H](CC(C)C)C(=O)N[C@@H](Cc1c[nH]cn1)C(=O)N[C@@H](CCC(=O)O)C(=O)N[C@@H](CC(C)C)C(=O)N[C@@H](CC(C)C)C(=O)N[C@@H](CCC(=O)O)C(=O)N[C@@H](Cc1c[nH]cn1)C(=O)N[C@@H](CC(C)C)C(=O)N[C@@H](Cc1c[nH]cn1)C(=O)N[C@@H](CCC(=O)O)C(=O)N[C@@H](CC(C)C)C(=O)N[C@@H](CC(C)C)C(=O)N[C@@H](CCC(=O)O)C(=O)N[C@@H](Cc1c[nH]cn1)C(N)=O)C(N)=O	RG	cell viability, MTT	0.5 h, pH 6.0	12.6 µM
NC1CCCCC1N.O=C1[O][Pt]([O]C(=O)c2ccc(P(c3ccccc3)c3ccccc3)cc2)([O]C(=O)c2ccc(P(c3ccccc3)c3ccccc3)cc2)[O]C1=O.[Cl][Au].[Cl][Au]	IMR-90	cell growth or viability, resazurin	72 h	> 100 µM
CC(C)C[C@H](NC(=O)[C@H](CCCCN)NC(=O)[C@H](CC(C)C)NC(=O)[C@H](CC(C)C)NC(=O)[C@H](CCCCN)NC(=O)[C@H](CCCCN)NC(=O)[C@H](CC(C)C)NC(=O)[C@H](CC(C)C)NC(=O)[C@H](CCCCN)NC(=O)[C@H](CC(C)C)NC(=O)[C@H](CC(C)C)NC(=O)[C@H](CCCCN)NC(=O)[C@H](CCCCN)NC(=O)[C@H](CC(C)C)NC(=O)[C@@H](N)CSSC[C@H](N)C(=O)N[C@@H](CC(C)C)C(=O)N[C@@H](CCC(=O)O)C(=O)N[C@@H](CCC(=O)O)C(=O)N[C@@H](CC(C)C)C(=O)N[C@@H](CC(C)C)C(=O)N[C@@H](Cc1c[nH]cn1)C(=O)N[C@@H](Cc1c[nH]cn1)C(=O)N[C@@H](CC(C)C)C(=O)N[C@@H](CCC(=O)O)C(=O)N[C@@H](CCC(=O)O)C(=O)N[C@@H](CC(C)C)C(=O)N[C@@H](CC(C)C)C(=O)N[C@@H](Cc1c[nH]cn1)C(=O)N[C@@H](Cc1c[nH]cn1)C(N)=O)C(N)=O	RG	cell viability, MTT	0.5 h, pH 6.0	13.6 µM
C[C@H]1[C@H](OCCc2ccc(O)cc2)O[C@@H]2O[C@@]3(C)CC[C@H]4[C@H](C)CC[C@@H]1[C@@]24OO3	RPMI-7951	cell growth or viability, MTT	24 h	0.33 µM
N.N.O=C([O][Pt]([OH])([Cl])[Cl])c1ccc(P(c2ccccc2)c2ccccc2)cc1.[Cl][Au]	IMR-90	cell growth or viability, resazurin	72 h	48.9 µM
Cc1cc(C)c(-n2ccn(-c3c(C)cc(C)cc3C)c2=[Se])c(C)c1.[Cl][Au]	LoVo MDR	MTT	72 h	3.2 ± 0.5 µM
CC(C)C[C@H](NC(=O)[C@H](C)NC(=O)[C@H](CCCCN)NC(=O)[C@H](C)NC(=O)[C@H](C)NC(=O)CNC(=O)[C@H](CCCCN)NC(=O)[C@H](CC(C)C)NC(=O)[C@H](CC(C)C)NC(=O)[C@H](CC(=O)O)NC(=O)[C@H](CCCCN)NC(=O)[C@H](Cc1ccccc1)NC(=O)CN)C(=O)N[C@H](C(=O)N[C@@H](CCCCN)C(=O)N[C@H](C(=O)N[C@H](C(=O)N[C@@H](CC(C)C)C(=O)N[C@@H](Cc1ccccc1)C(N)=O)C(C)C)[C@@H](C)O)C(C)C	U87	cell proliferation, CCK-8	48 h	9.25 µM

Repeated from above:
Structure (SMILES)	tested on	test	setting	IC50
Cc1cc(Nc2nc(C[C@@]3(C(=O)O)CCN(Cc4cccc(Cl)c4F)[C@H](C)C3)cc(C)c2F)[nH]n1	neuroblastoma cell lines	cell proliferation	mean of four lines	0.0173 µM
CC(C)C[C@H](NC(=O)[C@H](C)NC(=O)[C@H](CCCCN)NC(=O)[C@H](C)NC(=O)[C@H](C)NC(=O)CNC(=O)[C@H](CCCCN)NC(=O)[C@H](CC(C)C)NC(=O)[C@H](CC(C)C)NC(=O)[C@H](CC(=O)O)NC(=O)[C@H](CCCCN)NC(=O)[C@H](Cc1ccccc1)NC(=O)CN)C(=O)N[C@H](C(=O)N[C@@H](CCCCN)C(=O)N[C@H](C(=O)N[C@H](C(=O)N[C@@H](CC(C)C)C(=O)N[C@@H](Cc1ccccc1)C(N)=O)C(C)C)[C@@H](C)O)C(C)C	U87	cell proliferation, CCK-8	48 h	9.25 µM
CC(C)C[C@H](NC(=O)[C@H](CCCCN)NC(=O)[C@H](CC(C)C)NC(=O)[C@H](CC(C)C)NC(=O)[C@H](CCCCN)NC(=O)[C@H](CCCCN)NC(=O)[C@H](CC(C)C)NC(=O)[C@H](CC(C)C)NC(=O)[C@H](CCCCN)NC(=O)[C@H](CC(C)C)NC(=O)[C@H](CC(C)C)NC(=O)[C@H](CCCCN)NC(=O)[C@H](CCCCN)NC(=O)[C@H](CC(C)C)NC(=O)[C@@H](N)CSSC[C@H](N)C(=O)N[C@@H](CC(C)C)C(=O)N[C@@H](CCC(=O)O)C(=O)N[C@@H](Cc1c[nH]cn1)C(=O)N[C@@H](CC(C)C)C(=O)N[C@@H](CC(C)C)C(=O)N[C@@H](CCC(=O)O)C(=O)N[C@@H](Cc1c[nH]cn1)C(=O)N[C@@H](CC(C)C)C(=O)N[C@@H](CCC(=O)O)C(=O)N[C@@H](Cc1c[nH]cn1)C(=O)N[C@@H](CC(C)C)C(=O)N[C@@H](CC(C)C)C(=O)N[C@@H](CCC(=O)O)C(=O)N[C@@H](Cc1c[nH]cn1)C(N)=O)C(N)=O	RG	cell viability, MTT	0.5 h, pH 6.0	13.4 µM
CC(C)C[C@H](NC(=O)[C@H](CC(C)C)NC(=O)[C@H](Cc1c[nH]cn1)NC(=O)[C@H](CCC(=O)O)NC(=O)[C@H](CC(C)C)NC(=O)[C@H](Cc1c[nH]cn1)NC(=O)[C@H](CCC(=O)O)NC(=O)[C@H](CC(C)C)NC(=O)[C@H](CC(C)C)NC(=O)[C@H](Cc1c[nH]cn1)NC(=O)[C@H](CCC(=O)O)NC(=O)[C@@H](N)CC(C)C)C(=O)N[C@@H](CCC(=O)O)C(=O)N[C@@H](Cc1c[nH]cn1)C(N)=O	HK-2	cell growth or viability, MTT	pH 6	> 100 µM
